Experimental data gathered from unrelated publications.
A part holds a random share of what one study measured.

Series 1 — technique: RNA Bind-n-Seq; form: RNA; sample: in vitro; concentration: 365 nM; relative to: no-protein control; reading: higher = stronger binding
Target: RNA binding protein fox-1 homolog 2, RRM domain, GST-SBP tag (RBFOX2, Homo sapiens, UniProt O43251-10, residues 100-194)
Setting: natural RNA segment, single round, ends assumed
Constant ends, left off below: GGGAGUUCUACAGUCCGACGAUC … UGGAAUUCUCGGGUGCCAA
Target sequence (chain): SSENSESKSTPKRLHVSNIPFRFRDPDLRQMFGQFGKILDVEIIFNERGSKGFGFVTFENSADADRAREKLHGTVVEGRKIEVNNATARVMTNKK
Oligonucleotide	RBNS enrichment (R)
AUGGCAAUGGAUUAGAGACUAGUUUGAAAGUAACUCUUCACUGAAAAUAAAGCUAAUUUUAGGAAGAUAAACCCUAUGUGGGCUUGCUUGUACAUCUGACUGUGGCUGCU	3.58
CGUUAUCUUUUAGCACUCAUAGAACAAACCAAGAUAUGGAAGAAGACAUAUUCAAAAGGUGGGCUUGUCUAAGGUUCCCACAGAAAUGUAAGUAUGAGCCUACUGUUUUG	0.475
CUCCUGGCCCCACCAGGGAUUUCCCCAUUUCUGUUUGCUGCCUGAAAGCAGGAUGAGGAAGGCCAAGGAGAGUCCUUGCACCCGUGAGCGUCAGGAUGAGGAAAUGACAG	0.865
UCUCCACAGAAGCAGCUGGAAGAGAACUCGAGGGGCUGUGCUGCAGGCCUCCCCUCGAAAGACACUGGGAGGUCAGCAUGUUCCACAGGUGUUCAGAGGGAGUCUGCUAC	8.58
GUGAUUGACACCUGCUGCUUUUGAGGAGCUCGGCUGCAGUGAUCACUGGCGUGUGGCACUCUGGCUACAAACUGCUGACCCAGGGGUUCCAGACACUGCUCACUCACUGG	0.282
CAGAUUCUGGGUGGUCUAUGUGACCAUUUGUCUCGUAUCCAAAAACCCCGGGGCUAUUGGAACCCUUCCAACACUUUUUCCUUUGUCAUAGACAAGUUUAUAUAUAACUU	0.26

Series 2 — technique: universal PBM; form: double-stranded DNA, one strand shown; sample: in vitro; concentration: not given; reading: higher = stronger binding
Target: Sal-like protein 4, full length isoform B (SALL4, Homo sapiens, UniProt Q9UJQ4-2, residues 1-616)
Setting: 8-mer, flanks averaged, mean of replicates
Oligonucleotide	E-score
ACCTGGCC	-0.312
CCAAGGTC	-0.136
CACTTATA	0.275
GTCGAGAC	-0.0325
CAGATGAG	0.0671
CTGTAGAC	-0.00439

Series 3 — technique: protein-binding microarray; form: double-stranded DNA, one strand shown; sample: in vitro; concentration: 2540 nM top; setting: 60-bp whole probe; with: salmon DNA 0.4 mg/ml; relative to: random background probes; reading: higher = stronger binding; constant ends, left off below: GCCTAGCAC … GTCTTGATTCGCTTGACGCTGCTG
Target: Interferon regulatory factor 3, full length, phosphomimetic (IRF3, Homo sapiens, UniProt Q14653, residues 1-427, S386D/S396D/S398D/S402D/T404D/S405D)
Sequence of UniProt Q14653 (whole entry, unmodified, looked up): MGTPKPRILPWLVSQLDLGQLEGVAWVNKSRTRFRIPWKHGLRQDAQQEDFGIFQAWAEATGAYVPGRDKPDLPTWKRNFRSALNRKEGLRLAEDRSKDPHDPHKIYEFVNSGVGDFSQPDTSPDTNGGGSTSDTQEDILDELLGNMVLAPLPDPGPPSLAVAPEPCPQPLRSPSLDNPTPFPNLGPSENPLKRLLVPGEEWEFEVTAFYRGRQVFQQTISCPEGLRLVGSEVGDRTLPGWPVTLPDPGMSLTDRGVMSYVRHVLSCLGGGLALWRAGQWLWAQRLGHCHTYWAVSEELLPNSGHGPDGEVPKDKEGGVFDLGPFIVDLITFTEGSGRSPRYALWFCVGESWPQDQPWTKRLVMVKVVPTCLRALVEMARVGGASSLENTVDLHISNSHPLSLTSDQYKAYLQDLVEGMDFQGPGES
Oligonucleotide	fitted relative affinity [z-score]
TTAGGTATCCGTCTCGGTTAGTGCTAG	4.84
TCAGGTTTCCTTTTCCTTTAGTGCTAG	11.2
TCAGGTTTCCTACTGCTTTAGTGCTAG	4.69
ATATATATGAATATATATTAGTGCTAG	0.591
TCATCTTGTTCTCTCTGACTGTGCTAG	1.16
TGGGCTCTAGGTTCTCTGAAGGTGCTA	-1.17

Mixed results
Substance	target	test	test system	setting	scale	quantity	value
PhoQ, residues 284 288 289 292 302 303 TNSAEL	PhoP, residues 12 14 15 18 19 QQAYL (Escherichia coli, UniProt P23836)	Sort-seq, refers to: YFP reporter	E. coli	PhoQ-PhoP variant library, with: 10 µM Mg2+	relative to: high Mg2+ state, higher = stronger signaling	fold induction	17.8
